Measured values gathered from unrelated publications.
Numbered parts are unrelated; each lists some results of a single study.

Series 1
Target: PABPC1L2, full length, GST fusion (mouse, UniProt A0ABA7IW68)
Method: RNAcompete
Form: RNA
Medium: in vitro
Concentration: 20 nM
Setting: 7-mer, probes averaged, single round
Relative to: mean of 7-mers
Direction: higher = stronger binding
Construct (chain): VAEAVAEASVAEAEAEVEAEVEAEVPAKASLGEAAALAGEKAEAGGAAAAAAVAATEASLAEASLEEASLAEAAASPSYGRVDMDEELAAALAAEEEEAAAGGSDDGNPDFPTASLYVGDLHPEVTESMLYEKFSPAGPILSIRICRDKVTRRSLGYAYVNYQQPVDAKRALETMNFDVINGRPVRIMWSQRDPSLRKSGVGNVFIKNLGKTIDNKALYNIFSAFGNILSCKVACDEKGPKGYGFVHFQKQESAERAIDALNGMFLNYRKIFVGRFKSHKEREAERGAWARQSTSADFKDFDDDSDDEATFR
For `UGCACCA`, the 7-mer Z-score was -0.204.
The 7-mer Z-score of `CAAAGCA` is reported as 0.0678.
`CUAAUGA` has a 7-mer Z-score of -0.117.
For `AUACCCC`, the 7-mer Z-score was -0.411.
`AUUUUUU` has a 7-mer Z-score of -0.306.
With `ACCCGCC` the 7-mer Z-score was -0.485.
For `CGAUCUU`, the 7-mer Z-score was -0.141.
The 7-mer Z-score of `GAGCGGG` is reported as 0.149.
For `AACGACG`, the 7-mer Z-score was 0.278.
`GGUAGUC` gave a 7-mer Z-score of -0.079.
`GCGUAUC` gave a 7-mer Z-score of -0.191.
The 7-mer Z-score of `CGGGGAA` is reported as 0.26.
`AGACCAC` gave a 7-mer Z-score of -0.269.
The 7-mer Z-score of `AGUGUCC` is reported as -0.124.
For `ACAAGUU`, the 7-mer Z-score was -0.0264.
With `UUUCCUC` the 7-mer Z-score was -0.472.
For `UGAGAUA`, the 7-mer Z-score was -0.0319.
The 7-mer Z-score of `AAUCUCU` is reported as -0.186.
The 7-mer Z-score of `GCGGCUG` is reported as -0.0808.
`GGCCAAA` has a 7-mer Z-score of 0.602.
With `UGAUUUA` the 7-mer Z-score was 0.202.

Series 2
Target: RNA binding protein fox-1 homolog 2, RRM domain, GST-SBP tag (RBFOX2, Homo sapiens, UniProt O43251-10, residues 100-194)
Method: RNA Bind-n-Seq
Form: RNA
Medium: in vitro
Concentration: 365 nM
Setting: natural RNA segment, single round, ends assumed
Relative to: no-protein control
Direction: higher = stronger binding
Constant ends, left off below: GGGAGUUCUACAGUCCGACGAUC … UGGAAUUCUCGGGUGCCAA
Residues (chain): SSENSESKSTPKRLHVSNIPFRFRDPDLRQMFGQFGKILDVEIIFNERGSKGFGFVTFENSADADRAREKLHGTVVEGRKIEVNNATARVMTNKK
Under “RBNS enrichment (R)”, `UGUGAAGAGCAUCUCAGAUAAGGGUUCUUAAAAGGGGGGAUGGGCAGAGUACAGUAGAGGAGGACUUGUUAGGUUCAUUGUUCCCCGGAAGAAGCUUCCUGCAAUGCCCA` is recorded as 0.751.
For `UUACAUUUGUUUUAUUGUACAUAGGUUUGUAAACAUUAUUGCCUAAGAUAUUUGUAUAUAACUUGGGCUUUGUAGCUUUUAUUUAUUCAGACUCAUAUGGCAUGUUAAUU`, “RBNS enrichment (R)” read 1.82.
`ACUUUGGGUCCGGAGGGCGAGACUCCGGCAGACGCAUUCCCGGGCAGGUGACCAAGCACGGUCCCUCGUGGGACUGGAUUCGCCAUUUUCUUAUAUCUGCUGCUAAAUCG`: “RBNS enrichment (R)” 0.303.
Under “RBNS enrichment (R)”, `CAGGGCGGGCUGAGGGCAGAAGGCAGUGAGACAUUUAUCCACAGAACAGUCUCCCUCGUCCCACCCACUGCCUCGUUAACUAGAUCCCACAUCAGUGUGCUGAGUACCUG` is recorded as 0.239.
For `CAACGCCUACGUAAUUCGGAUUGAAGCUCCCCAAGCAAGGAUAUGGACAGCAAUGUGAGCAGGCAGUUGAACAGGAAGAGGACAUUUUCUUUGUGGCUUUGGACCUGGAC`, “RBNS enrichment (R)” read 1.11.
Under “RBNS enrichment (R)”, `UCCAGAGGUUGAAGGACUGACUCUCACAUCUGUCCUGAGGUAGAGAGUAGGGGUGGGGACAAGGUACUUUCCCUCUCUCUGCCUUGUUUAUUUUGUACUGUAAUGAAUGU` is recorded as 0.987.
`GAGUUCAAUUCCCAGCAACCACAUGAUGGUUCAUAAUGGGAUCUGAUGCCCUCUUCUGGCAUGCAGGCAGAAUACUAUAUAUAGUAAGUAAAUCGUAAAGAGAAAGGAAU`: “RBNS enrichment (R)” 2.92.
`AUUUUCAUAUAAAAGGUAAGAAAGAGUUUGCAAAGCAUUUGUGGCUUUUUGUAGUUUACUUAAGCCAAAAUGUGUUUUUCCCUCAAUAGCUUCGCUAAUAUUUUAAACAG` — result for “RBNS enrichment (R)”: 0.563.
For `UUAGGAAAUCCUGCACCGGUUUCUUCGCUAAUUCUUGAAACUGCUCAAGCUUCAUGUAGGGUCAGGGGUGCCUAGGGAUGGCCCCAUCUGCUAUGUAAAUUAGGACUUGC`, “RBNS enrichment (R)” read 0.546.
Under “RBNS enrichment (R)”, `UAUUUCCUGGGGAUUGUUUGCUUUUUAAGUGAAACACUUCUGACCAAUAGCACAGAACGUCUUAAUGCCAGAGGUCACUUCAGCAUCUUCCUGCUUUGAAAACUCACGCU` is recorded as 0.29.
`GUUACUCUAGGUAGUUGGAUCCCUUGAUGGUGGGGACUGUCUUUACUAAAGCUACAUCAGGCCUACUAAGCAGGAGCUGGCCUGUUGCCUACCACCCCUAGUAAGCAGGG` — result for “RBNS enrichment (R)”: 0.569.
Under “RBNS enrichment (R)”, `AUAUCAAAUGUAUAGUUAUGAACUAGUUAUGAAAUAAUCUUAUGGUUGAGGGUCACCACAACAUGAGGAACUAUAUUAAAGACUCGUGGCAUUAGGAAGGUUGAGAACCA` is recorded as 0.608.

Series 3
Target: Hepatocyte nuclear factor 3-beta, forkhead domain (FOXA2, Homo sapiens, UniProt Q9Y261, residues 142-269)
Method: protein-binding microarray
Form: double-stranded DNA, one strand shown
Medium: in vitro
Concentration: not given
Setting: k-mer, scored over probes, only values ≥0.25
Direction: higher = stronger binding
Target sequence (chain): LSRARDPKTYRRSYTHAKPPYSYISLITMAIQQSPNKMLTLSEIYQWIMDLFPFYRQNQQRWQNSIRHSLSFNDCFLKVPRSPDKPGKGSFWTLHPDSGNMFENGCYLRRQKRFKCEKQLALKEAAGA
With `TAACACCA` the E-score was 0.255.
For `AGTATGTC`, the E-score was 0.286.
`ATAAGCAA` has an E-score of 0.27.
`TGATATCA` gave an E-score of 0.298.
With `GTAACACA` the E-score was 0.282.
The E-score of `GTGATATA` is reported as 0.266.
For `GTTAACTA`, the E-score was 0.255.
The E-score of `TATATTAA` is reported as 0.265.
With `AAATATGA` the E-score was 0.377.
The E-score of `AATACACC` is reported as 0.319.
For `AACTACAT`, the E-score was 0.297.
With `ACATATGG` the E-score was 0.335.
For `GGCAAATA`, the E-score was 0.314.
With `ACAACACC` the E-score was 0.289.
`GTCTAGTA` gave an E-score of 0.285.
`GACATATC` has an E-score of 0.304.
With `ATTAATAG` the E-score was 0.357.
The E-score of `ATGTGTCA` is reported as 0.282.
`ATCACATA` has an E-score of 0.362.
With `GCAAACTA` the E-score was 0.25.
`GTGTTTAA` has an E-score of 0.279.
`ATAGCGAA` gave an E-score of 0.268.
For `GTATTCCA`, the E-score was 0.261.
For `CACATACC`, the E-score was 0.26.

Series 4
Target: Sal-like protein 4, full length isoform B (SALL4, Homo sapiens, UniProt Q9UJQ4-2, residues 1-616)
Method: universal PBM
Form: double-stranded DNA, one strand shown
Medium: in vitro
Concentration: not given
Setting: 8-mer, flanks averaged, mean of replicates
Direction: higher = stronger binding
The E-score of `AAATCGTT` is reported as 0.151.
`CCTCGCCG` gave an E-score of -0.385.
The E-score of `GAAATTGA` is reported as 0.208.
For `GCGTGCGA`, the E-score was -0.279.
With `AACGACGT` the E-score was 0.0122.
`GAGGCTAC` gave an E-score of -0.27.
With `CACCGCTC` the E-score was -0.318.
With `AACCCTCA` the E-score was -0.00535.
The E-score of `ACCGGGAC` is reported as -0.296.
For `CCACACCG`, the E-score was -0.204.
For `CTAAAAAA`, the E-score was 0.303.
For `AAGACATA`, the E-score was 0.234.
`CGCCCCGA` gave an E-score of -0.405.
The E-score of `GAAGCGGC` is reported as -0.24.
`TCCACTCA` has an E-score of -0.0617.
For `GAGCTGTA`, the E-score was -0.0469.
The E-score of `GGTCCAAC` is reported as -0.229.
`GGCAAGAA` gave an E-score of 0.18.
With `GACTTGCC` the E-score was -0.24.
`CATCGACA` gave an E-score of -0.133.
`CCAGCCCG` gave an E-score of -0.387.
For `AAGAGAGG`, the E-score was 0.0226.
With `AACTCGTC` the E-score was -0.123.
The E-score of `TCCAGTAA` is reported as -0.0212.
`GAGGCAAA` gave an E-score of 0.0247.

Series 5
Target: Ras GTPase-activating protein-binding protein 1, full length (G3BP1, Homo sapiens, UniProt Q13283)
Sequence of UniProt Q13283 (whole entry, looked up): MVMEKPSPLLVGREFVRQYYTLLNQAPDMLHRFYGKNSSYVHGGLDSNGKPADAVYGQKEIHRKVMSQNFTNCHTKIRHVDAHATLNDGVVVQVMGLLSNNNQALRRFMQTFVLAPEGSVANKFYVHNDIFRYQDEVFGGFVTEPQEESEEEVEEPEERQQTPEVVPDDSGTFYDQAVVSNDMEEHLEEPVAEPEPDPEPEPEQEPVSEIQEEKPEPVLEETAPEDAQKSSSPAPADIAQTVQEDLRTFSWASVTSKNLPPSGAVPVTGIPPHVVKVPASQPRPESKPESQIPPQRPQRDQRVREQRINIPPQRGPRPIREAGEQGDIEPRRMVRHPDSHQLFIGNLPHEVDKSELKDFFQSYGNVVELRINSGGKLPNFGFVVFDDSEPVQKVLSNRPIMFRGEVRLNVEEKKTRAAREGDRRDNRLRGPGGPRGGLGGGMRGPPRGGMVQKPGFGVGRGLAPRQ
Method: RNA Bind-n-Seq
Form: RNA
Medium: in vitro
Concentration: 200 nM
Setting: whole 134-nt RNA, ends assumed
Together with: 150 mM KCl
Relative to: input library
Direction: higher = stronger binding
Constant ends, left off below: GGGAGUUCUACAGUCCGACGAUC … UGGAAUUCUCGGGUGUCAAGG
`UGUGCUACACAUCGUAUGUACCGAAUCGGGCCCCCCCGGGGCCCCCCCGGGCCCCCCCGGGGAAAGUAUUAUGUUACGCCGUUCGGAUCU` has a log2 enrichment of -2.
For `UGGGAGGUGGAUUUUGUUUAUUUUUUUAGCUCAUUUCCAGGGGUGGGAAUUUUUUUUUAAUAUGUGCCAUGAAUAAAGUUGUUUUUGAAA`, the log2 enrichment was 0.11.
`GCAGGAAGUAAAAACAAAUGGAAAUGCUUCGGAUAGUGGCAGGGGUGGGGGUUGCUAAGGAAAGGGUGGGAUGGGAGUCGGUAAAGAGUU` gave a log2 enrichment of 0.981.
For `GUCCUGUGCUACACAUCGUAUGUACCGAAUCGGGAAAAAAAGGGAGGGUUUUUUUGGGAAAGUAUUAUGUUACGCCGUUCGGAUCUGCAC`, the log2 enrichment was -0.168.
With `GCAGGAAGUAAAAACAAAUGGAAAUGCUUCGGAUAGUGGCAGGGGUGGGGGUUGGUAAGGAAAGGGUGGGAUGGGAGUGGGUAAAGAGUU` the log2 enrichment was 0.982.
The log2 enrichment of `CCUGUGCUACACAUCGUAUGUACCGAAUCGGGGUUUGGGGUUUUUUUGGGGUUUUUGGGGAAAGUAUUAUGUUACGCCGUUCGGAUCUGC` is reported as 0.318.
With `UAACUUUAGAGGAGGAUCUGAUGGAUAUGGCAGUGGACGUGGAUUUGGGGAUGGCUAUAAUGGGUAUGGAAGAGGACCUGGAGGUGGCAA` the log2 enrichment was 0.183.
For `UAACUUUAGAGGAGGAUCUGAUGGAUAUGGCAGUGGACGUGGAUUUGGGGAUGGCUAUAAUGGGUAUGGAGCAGGACCUGGAGGUGGCAA`, the log2 enrichment was 0.196.
The log2 enrichment of `CAAGUCCUGUGCUACACAUCGUAUGUACCGAAUCGGGUUUUUUUGGGUGGGUGGGAAAGUAUUAUGUUACGCCGUUCGGAUCUGCACUUC` is reported as 0.337.
The log2 enrichment of `UGGCCCUGGUGGCAUGCGGGGAGGAAGAGGUGGCCUCAUGAAUCGUGGUGGUCCCGGUGGAAUGUUCAGAGGUGGCCGUGGUGGAGACAG` is reported as 0.0316.
With `CCUGUGCUACACAUCGUAUGUACCGAAUCGGGAAAAAGGGUUUUUUUGGGUUUUUUUGGGAAAGUAUUAUGUUACGCCGUUCGGAUCUGC` the log2 enrichment was -1.04.
`UGGGAGGUGGAUUUUGUUUAUUUUUUUAGCUCAUUUCCAGGGGUGGUAAUUUUUUUUUAAUAUGUGUCAUGAAUAAAGUUGUUUUUGAAA` has a log2 enrichment of 0.079.
For `UCCUGUGCUACACAUCGUAUGUACCGAAUCGGGGCCCCCCGGCCCCCCGGGCCCCCCGGGAAAGUAUUAUGUUACGCCGUUCGGAUCUGC`, the log2 enrichment was 0.00851.
The log2 enrichment of `GUCCUGUGCUACACAUCGUAUGUACCGAAUCGGCCCCCCGGCCCCCCGGGCCCCCCGGAAAGUAUUAUGUUACGCCGUUCGGAUCUGCAC` is reported as 0.0208.
